Experimental data pooled from the literature.
Protocols differ between the studies behind these lines.
Method: steady-state kinetics
B1: protein (Sinorhizobium meliloti, UniProt Q92LZ4); chain MSRPRILVPGKINPRVLERLPEMFETVRIERADAALVTADMRDVSGIAVSGKLPVPLMDAFPSLEIVANFGVGYDGVDVSRAAARGIVVTNTPDVLTEEVADTAIGLLLNTLRLLPQAEQWLRQGRWVREGAFPLSPLSLRGRTVGLFGLGRIGLAIARRLEAFGVSIAYHTRTPREGLGFTYHPTLVGMAEAVDTLIVIVPGTASTLKAVNADVLSALGPKGVLINVGRGSTVDEAALVTALQNGTIAGAGLDVFENEPNVPEALLSFPNVSLLPHVASASVVTRNAMSDLVVDNLKAWFSTGEALTPVAETPFRRRAIQN
B2: TRM10 D210K (Saccharomyces cerevisiae, UniProt Q12400); chain MSNDEINQNEEKVKRTPPLPPVPEGMSKKQWKKMCKRQRWEENKAKYNAERRVKKKRLRHERSAKIQEYIDRGEEVPQELIREPRINVNQTDSGIEIILDCSFDELMNDKEIVSLSNQVTRAYSANRRANHFAEIKVAPFDKRLKQRFETTLKNTNYENWNHFKFLPDDKIMFGDEHISKDKIVYLTADTEEKLEKLEPGMRYIVGGIVKKNRYKELCLKKAQKMGIPTRRLPIDEYINLEGRRVLTTTHVVQLMLKYFDDHNWKNAFESVLPPRKLDAEAKSASSSPAPKDT
B3: Tcur_2987 W263A (Thermomonospora curvata, UniProt D1A807); chain ACSEERAAGARPSATQTTGTATEPFHGPHQAGIATPPQAHAVFLGLDLRKGTGRKELGRLMRLLTDDARRLTQGRPALADPEPDLAPLPSRLTFTFGFGPGLFKAAGLEKQRPEGLRPLPPFKVDRLEDRWSGGDLLVQICCDDPITLAHALRMTVKDARAFTRVRWVQRGFRRSPGVQSSGATQRNLMGQLDGTVNPVPGTADFDQAVWVQDGPEWLRGGTTLVLRRIRMELEKADEADPAGKEFAVGRRLTSGAPLTGRHEHDEPDFDAVDSAGFPVIAENAHIRLAHVDSPRLRMLRRPYNYDEGLTADGRSDAGLLFAAYQADIDRQFIPVQRRLDEGGDLLNLWTTPIGSAVFAIPPGCDENGWIGQGLLG
B4: TRMT10A D210N (Homo sapiens, UniProt Q8TBZ6); chain MSSEMLPAFIETSNVDKKQGINEDQEESQKPRLGEGCEPISKRQMKKLIKQKQWEEQRELRKQKRKEKRKRKKLERQCQMEPNSDGHDRKRVRRDVVHSTLRLIIDCSFDHLMVLKDIKKLHKQIQRCYAENRRALHPVQFYLTSHGGQLKKNMDENDKGWVNWKDIHIKPEHYSELIKKEDLIYLTSDSPNILKELDESKAYVIGGLVNHNHHKGLTYKQASDYGINHAQLPLGNFVKMNSRKVLAVNHVFEIILEYLETRDWQEAFFTILPQRKGAVPTDKACESASHDNQSVRMEEGGSDSDSSEEEYSRNELDSPHEEKQDKENHTESTVNSLPH
B5: protein (Sinorhizobium meliloti, UniProt Q92T34); chain MPAKSPVIVDLKFIPEEVEAALAGAFPGREVIDLADPAHQERDLSGIDYAVVWKSAPDLFSRAPDLKVVFSGGAGVDHVLTLPGLPDVPLVRFVDRTLTTRMSEWVMMQCLLHLRQHRAYEALAKKHEWRDLSQPEAADVTVGIMGMGVLGQDAARKLAAMGFKVIGWSRSKRVIEGVETYDAAGLDAFLGRTDFLVGLLPLTPDTRGIFNAALFAKLSRNGPFGAPVFINAGRGGSQVEADILECLDSGVLGGASLDVFEREPLSPESRFWDMPNVYVTPHVAASSDVRALFVHVEHQIARFESGLPLEHVVDKVAGY
B6: protein (Salmo salar, UniProt A0A1S3PN69); chain METRKEHELKIHENGKTSKSPKLCGTNYPVSISFIVVNEFCERFSYYGMKAVLTLYFINYLHWDPNLSTAVYHAFSSLCYFTPVLGALIADSWLGKFKTIVYLSVVYVLGHIVKSVGAIPSVGDSTIHIVLSMVGLILIAFGTGGIKPCVAAFGGDQFDEEHTNERRKFFSIFYMSINGGSVLSTLITPILRGDVQCFGGDCYALAFGVPAILMVVALVVFISGSGMYKKSPPEGNILLDVCKCMGLAIKNRWKSSKYDPKKKHWLDWAEDKYPRRLIHEIKMVLRVLVLYIPLPMFWALFDQQGSRWTLQATRMNMAFGSTFVLKPDQMQMLNALLILVFVPIFDMVVYPLIGLCRINLTPLKKMAVGMIFAALAFGSATLVEVNVTKTVVEPAPQGQCLLQVYNLAVSDVKLNIPGSNLFSQPIKSYEDPPAYQHIQLGGHNKTINMAVTQNEILYQCVQTFTEQKAYTLVLHSNGSGIVCKLATDNIHKSEKMEAYLRFINTRSEAVNITVGAVDFYVPADYGISPHNNVERKEYTNDKCTTGSQDFLITLGLLDFGASYTVILKGDPGEIILQKMEDVKANNVHIAWQIPQYVLITAGEVMFSITGLEFSYSQAPANMKSVLQAGWLLTVAFGNVIVLIVAEGAGLDQWMEFLLFAGLLVAVCIIFSIMAYFYTYVDPDELDKLFPDKAVNDDDEDNLKKNQKYHMDQTDNSMYLNPIEKSTKM
B7: primase (Aquifex aeolicus, UniProt O67465); chain MSSDIDELRREIDIVDVISEYLNLEKVGSNYRTNCPFHPDDTPSFYVSPSKQIFKCFGCGVGGDAIKFVSLYEDISYFEAALELAKRYGKKLDLEKISKDEKVYVALDRVCDFYRESLLKNREASEYVKSRGIDPKVARKFDLGYAPSSEALVKVLKENDLLEAYLETKNLLSPTKGVYRDLFLRRVVIPIKDPRGRVIGFGGRRIVEDKSPKYINSPDSRVFKKGENLFGLYEAKEYIKEEGFAILVEGYFDLLRLFSEGIRNVVAPLGTALTQNQANLLSKFTKKVYILYDGDDAGRKAMKSAIPLLLSAGVEVYPVYLPEGYDPDEFIKEFGKEELRRLINSSGELFETLIKTARENLEEKTREFRYYLGFISDGVRRFALASEFHTKYKVPMEILLMKIEK
B8: Tcur_2987 Y332L (Thermomonospora curvata, UniProt D1A807); chain ACSEERAAGARPSATQTTGTATEPFHGPHQAGIATPPQAHAVFLGLDLRKGTGRKELGRLMRLLTDDARRLTQGRPALADPEPDLAPLPSRLTFTFGFGPGLFKAAGLEKQRPEGLRPLPPFKVDRLEDRWSGGDLLVQICCDDPITLAHALRMTVKDARAFTRVRWVQRGFRRSPGVQSSGATQRNLMGQLDGTVNPVPGTADFDQAVWVQDGPEWLRGGTTLVLRRIRMELEKWDEADPAGKEFAVGRRLTSGAPLTGRHEHDEPDFDAVDSAGFPVIAENAHIRLAHVDSPRLRMLRRPYNLDEGLTADGRSDAGLLFAAYQADIDRQFIPVQRRLDEGGDLLNLWTTPIGSAVFAIPPGCDENGWIGQGLLG
B9: Tcur_2987 W263S (Thermomonospora curvata, UniProt D1A807); chain ACSEERAAGARPSATQTTGTATEPFHGPHQAGIATPPQAHAVFLGLDLRKGTGRKELGRLMRLLTDDARRLTQGRPALADPEPDLAPLPSRLTFTFGFGPGLFKAAGLEKQRPEGLRPLPPFKVDRLEDRWSGGDLLVQICCDDPITLAHALRMTVKDARAFTRVRWVQRGFRRSPGVQSSGATQRNLMGQLDGTVNPVPGTADFDQAVWVQDGPEWLRGGTTLVLRRIRMELEKSDEADPAGKEFAVGRRLTSGAPLTGRHEHDEPDFDAVDSAGFPVIAENAHIRLAHVDSPRLRMLRRPYNYDEGLTADGRSDAGLLFAAYQADIDRQFIPVQRRLDEGGDLLNLWTTPIGSAVFAIPPGCDENGWIGQGLLG
Chain of UniProt P05177 (whole entry, looked up): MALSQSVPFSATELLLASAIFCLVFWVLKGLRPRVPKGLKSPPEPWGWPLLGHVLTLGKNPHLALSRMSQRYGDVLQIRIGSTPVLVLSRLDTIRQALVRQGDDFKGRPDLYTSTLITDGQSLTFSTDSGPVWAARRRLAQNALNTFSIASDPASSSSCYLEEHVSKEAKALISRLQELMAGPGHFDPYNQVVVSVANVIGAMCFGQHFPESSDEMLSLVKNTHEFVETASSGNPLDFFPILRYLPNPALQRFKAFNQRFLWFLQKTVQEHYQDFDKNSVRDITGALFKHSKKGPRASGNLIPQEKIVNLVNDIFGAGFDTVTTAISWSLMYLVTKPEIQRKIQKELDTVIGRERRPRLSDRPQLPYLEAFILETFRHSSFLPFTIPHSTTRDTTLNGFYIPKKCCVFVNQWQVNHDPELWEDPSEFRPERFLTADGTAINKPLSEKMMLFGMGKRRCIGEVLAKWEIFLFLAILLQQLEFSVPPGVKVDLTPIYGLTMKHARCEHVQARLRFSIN
Chain of UniProt Q6QT07 (whole entry, looked up): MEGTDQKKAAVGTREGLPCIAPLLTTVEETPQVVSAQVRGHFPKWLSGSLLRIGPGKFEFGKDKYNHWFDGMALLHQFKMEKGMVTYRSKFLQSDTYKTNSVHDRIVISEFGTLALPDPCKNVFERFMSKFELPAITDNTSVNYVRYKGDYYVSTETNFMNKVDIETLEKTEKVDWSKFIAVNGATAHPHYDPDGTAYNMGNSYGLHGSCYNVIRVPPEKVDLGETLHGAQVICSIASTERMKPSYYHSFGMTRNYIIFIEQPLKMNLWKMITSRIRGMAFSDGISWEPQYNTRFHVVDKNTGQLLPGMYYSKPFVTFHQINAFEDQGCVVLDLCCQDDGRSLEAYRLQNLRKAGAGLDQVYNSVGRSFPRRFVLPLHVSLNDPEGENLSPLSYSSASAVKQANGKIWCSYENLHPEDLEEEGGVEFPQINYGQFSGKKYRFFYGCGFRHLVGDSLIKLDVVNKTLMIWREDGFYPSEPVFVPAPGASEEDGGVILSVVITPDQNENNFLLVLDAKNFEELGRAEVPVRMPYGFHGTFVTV
Chain of UniProt Q18B70 (whole entry, looked up): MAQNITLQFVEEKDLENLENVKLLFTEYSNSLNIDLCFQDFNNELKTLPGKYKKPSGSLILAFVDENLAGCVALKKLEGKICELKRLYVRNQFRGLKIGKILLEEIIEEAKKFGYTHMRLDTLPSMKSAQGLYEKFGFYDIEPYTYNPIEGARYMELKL
Chain of UniProt P09950 (whole entry, looked up): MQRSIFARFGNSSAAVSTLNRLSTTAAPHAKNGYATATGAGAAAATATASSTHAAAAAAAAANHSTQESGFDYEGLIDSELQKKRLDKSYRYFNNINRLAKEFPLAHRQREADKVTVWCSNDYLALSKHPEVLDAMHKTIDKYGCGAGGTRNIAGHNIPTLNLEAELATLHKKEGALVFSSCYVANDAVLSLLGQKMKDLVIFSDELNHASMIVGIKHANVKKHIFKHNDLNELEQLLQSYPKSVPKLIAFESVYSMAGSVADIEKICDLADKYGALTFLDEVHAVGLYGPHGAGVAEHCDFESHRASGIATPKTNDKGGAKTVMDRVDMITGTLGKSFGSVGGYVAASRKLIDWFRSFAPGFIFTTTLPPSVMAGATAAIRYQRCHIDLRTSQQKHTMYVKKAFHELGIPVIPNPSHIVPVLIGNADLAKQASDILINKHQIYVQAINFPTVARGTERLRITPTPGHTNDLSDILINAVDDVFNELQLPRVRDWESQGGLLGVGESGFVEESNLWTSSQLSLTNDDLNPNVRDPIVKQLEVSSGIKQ

Substance	substrate	system	setting	K0.5
protein (Clostridioides difficile, UniProt Q18B70)	C[C@@H](O)[C@H](N)C(=O)O	–	pH 8, 37 °C, added: AcCoA 1 mM, L-Thr 0-10 mM	5960 µM
Tcur_2987 (Thermomonospora curvata, UniProt D1A807)	Nc1c(S(=O)(=O)O)cc(Nc2cccc(S(=O)(=O)CCOS(=O)(=O)O)c2)c2c1C(=O)c1ccccc1C2=O	–	pH 3, sigmoidal kinetics, added: H2O2 1 mM	42 µM
B1 (protein)	NC(=O)C1=CN([C@@H]2O[C@H](COP(=O)(O)OP(=O)(O)OC[C@H]3O[C@@H](n4cnc5c(N)ncnc54)[C@H](OP(=O)(O)O)[C@@H]3O)[C@@H](O)[C@H]2O)C=CC1	–	pH 7.5, 25 °C, NaCl 150 mM, cofactor varied, added: hydroxypyruvate 66.7 mM	59 µM
B2 (TRM10 D210K)	C[S+](CC[C@H](N)C(=O)O)C[C@H]1O[C@@H](n2cnc3c(N)ncnc32)[C@H](O)[C@@H]1O	–	pH 8, 30 °C	91.8 µM
speG (Vibrio cholerae, UniProt Q9KL03)	NCCCCNCCCN	–	pH 9, 37 °C	1320 µM
B3 (Tcur_2987 W263A)	Nc1c(S(=O)(=O)O)cc(Nc2cccc(S(=O)(=O)CCOS(=O)(=O)O)c2)c2c1C(=O)c1ccccc1C2=O	–	pH 3, sigmoidal kinetics, added: H2O2 1 mM	28 µM
HEM1 (Saccharomyces cerevisiae, UniProt P09950)	CC(C)(COP(=O)(O)OP(=O)(O)OC[C@H]1O[C@@H](n2cnc3c(N)ncnc32)[C@H](O)[C@@H]1OP(=O)(O)O)[C@@H](O)C(=O)NCCC(=O)NCCSC(=O)CCC(=O)O	–	pH 7.4, 30 °C	26 µM
B4 (TRMT10A D210N)	C[S+](CC[C@H](N)C(=O)O)C[C@H]1O[C@@H](n2cnc3c(N)ncnc32)[C@H](O)[C@@H]1O	–	pH 8, 30 °C	7.84 µM
B5 (protein)	O=CC(=O)O	–	pH 7.5, 25 °C, NaCl 150 mM, added: NADPH 0.4 mM	12300 µM
B6 (protein)	NCC(=O)N[C@@H](CCC(N)=O)C(=O)O	–	pH 7.6, proton-coupled, at -60 mV, not purified	24.4 µM
B7 (primase)	Nc1ccn([C@@H]2O[C@H](COP(=O)(O)OP(=O)(O)OP(=O)(O)O)[C@@H](O)[C@H]2O)c(=O)n1	–	pH 7.5, 55 °C, added: magnesium acetate 10 mM	16 µM
BCO2 (Mustela putorius furo, UniProt Q6QT07)	CC1=C[C@H](O)CC(C)(C)[C@H]1/C=C/C(C)=C/C=C/C(C)=C/C=C/C=C(C)/C=C/C=C(C)/C=C/C1=C(C)C[C@@H](O)CC1(C)C	crude Sf9 lysate	pH 8.5, 37 °C, apparent, not purified, added: FeSO4 10 µM, NAD+ 3 mM	49.6 µM
B8 (Tcur_2987 Y332L)	Nc1c(S(=O)(=O)O)cc(Nc2cccc(S(=O)(=O)CCOS(=O)(=O)O)c2)c2c1C(=O)c1ccccc1C2=O	–	pH 3, sigmoidal kinetics, added: H2O2 1 mM	37 µM
CYP1A2 (Homo sapiens, UniProt P05177)	COc1cc2c(cc1CC=C(C)C)C(=O)C[C@@H](c1ccc(O)cc1)O2	–	pH 7.4, 37 °C	3 µM
B9 (Tcur_2987 W263S)	Nc1c(S(=O)(=O)O)cc(Nc2cccc(S(=O)(=O)CCOS(=O)(=O)O)c2)c2c1C(=O)c1ccccc1C2=O	–	pH 3, sigmoidal kinetics, added: H2O2 1 mM	32 µM
CYP2C19 (Homo sapiens, UniProt P33261)	COc1cc2c(cc1CC=C(C)C)C(=O)C[C@@H](c1ccc(O)cc1)O2	–	pH 7.4, 37 °C	1.1 µM
enzyme (Limosilactobacillus reuteri, UniProt Q8GP32)	OC[C@H]1O[C@@](CO)(O[C@H]2O[C@H](CO)[C@@H](O)[C@H](O)[C@H]2O)[C@@H](O)[C@@H]1O	–	pH 5.5, 50 °C, apparent	31000 µM
pyruvate kinase 1 (Aedes aegypti, UniProt Q16F38)	C=C(OP(=O)(O)O)C(=O)O	–	pH 7.5, 25 °C, Hill fit, no effector, added: ADP 2 mM	246 µM

Repeated from above:
Substance	substrate	system	setting	K0.5
enzyme (Limosilactobacillus reuteri, UniProt Q8GP32)	OC[C@H]1O[C@@](CO)(O[C@H]2O[C@H](CO)[C@@H](O)[C@H](O)[C@H]2O)[C@@H](O)[C@@H]1O	–	pH 5.5, 50 °C, apparent	31000 µM
HEM1 (Saccharomyces cerevisiae, UniProt P09950)	CC(C)(COP(=O)(O)OP(=O)(O)OC[C@H]1O[C@@H](n2cnc3c(N)ncnc32)[C@H](O)[C@@H]1OP(=O)(O)O)[C@@H](O)C(=O)NCCC(=O)NCCSC(=O)CCC(=O)O	–	pH 7.4, 30 °C	26 µM
